Measurements of several laboratories.
Compare with care: the assays were run in different laboratories. ± gives the spread as reported.
Cell line: Jurkat

SMILES | read-out | technique | measured | time | added | reading | IC50
CN1CCC(N[C@@H]2CCc3[nH]c4c(C(N)=O)ccc(-c5ccccc5Cl)c4c3C2)CC1 | cell growth or viability |  |  |  |  |  | 0.00937 µM
COc1ccc2c(c1)Cc1c-2nc(N)c(C#N)c1-c1ccc(CO)o1 | cell growth or viability | ATP luminescence |  |  |  |  | 50.1 µM
CCCON(Cc1ccc(C(=O)NO)cc1)C(=O)Nc1cc(C)cc(C)c1 | cell viability |  |  | 72 h |  |  | 3.04 ± 0.142 µM
NC(=O)c1ccc(-c2ccccc2Cl)c2c3c([nH]c12)CC[C@@H](N)C3 | cell growth or viability |  |  |  |  |  | 0.024 µM
COc1cc(C(=O)N/N=C/c2cccc3ccccc23)cc(OC)c1OC | cell growth or viability | MTT |  | 48 h |  |  | 0.0843 µM
COC(CC1C(C)=CCC2C1(C)CCC1C(C)(C)C(O)C(O)CC12C)C(N)C(=O)O (stereo not drawn) | cell growth or viability | CCK-8 |  | 72 h |  |  | > 10 µM
Cc1ccc(-c2c(C#N)c(N)nc3c2Cc2cc(O)ccc2-3)o1 | cell viability | CellTiter-Glo |  |  |  | no inhibition at 100 µM | > 100 µM
CN(C)Cc1nc(Nc2ccc(-c3cnc4cc(F)ccn34)c3c2C(=O)NC3)ccc1C1CCOC1 (stereo not drawn) |  |  | SLP76 phosphorylation |  | anti-CD3 |  | 0.041 µM
N#Cc1c(N)nc2c(c1-c1ccccc1)Cc1cc(O)ccc1-2 | cell growth or viability | ATP luminescence |  |  |  |  | 24.1 µM
CC(C)c1ccc(N(C)c2ccc3c(c2)OCC[C@H]3CNc2cnccc2C(=O)O)cc1 | cell growth or viability | ATP luminescence |  | 7 days |  |  | 0.00149 µM
N#Cc1c(N)nc2c(c1-c1ccc(F)cc1)Cc1cc(O)ccc1-2 | cell growth or viability | ATP luminescence |  |  |  |  | 13.4 µM
CO[C@@H](C[C@H]1C(C)=CC[C@@H]2[C@]3(C)C[C@H](O[C@@H]4O[C@@H](C)[C@H](O)[C@@H](O)[C@H]4O)[C@@H](O)C(C)(C)[C@H]3CC[C@]21C)[C@H](N)C(=O)O | cell growth or viability | CCK-8 |  | 72 h |  |  | 5.66 µM
